Measurements from different studies.
Each numbered part is a random draw from the data of one study; scales do not carry over between parts. Changes are numbered by the printed parent chain.

Set 1 — method: universal PBM; molecule type: double-stranded DNA, one strand shown; matrix: in vitro; tested at: 600 nM; direction: higher = stronger binding
Target: Sal-like protein 4, full length isoform A (SALL4, Homo sapiens, UniProt Q9UJQ4, residues 1-1053)
Chain of UniProt Q9UJQ4 (whole entry, looked up): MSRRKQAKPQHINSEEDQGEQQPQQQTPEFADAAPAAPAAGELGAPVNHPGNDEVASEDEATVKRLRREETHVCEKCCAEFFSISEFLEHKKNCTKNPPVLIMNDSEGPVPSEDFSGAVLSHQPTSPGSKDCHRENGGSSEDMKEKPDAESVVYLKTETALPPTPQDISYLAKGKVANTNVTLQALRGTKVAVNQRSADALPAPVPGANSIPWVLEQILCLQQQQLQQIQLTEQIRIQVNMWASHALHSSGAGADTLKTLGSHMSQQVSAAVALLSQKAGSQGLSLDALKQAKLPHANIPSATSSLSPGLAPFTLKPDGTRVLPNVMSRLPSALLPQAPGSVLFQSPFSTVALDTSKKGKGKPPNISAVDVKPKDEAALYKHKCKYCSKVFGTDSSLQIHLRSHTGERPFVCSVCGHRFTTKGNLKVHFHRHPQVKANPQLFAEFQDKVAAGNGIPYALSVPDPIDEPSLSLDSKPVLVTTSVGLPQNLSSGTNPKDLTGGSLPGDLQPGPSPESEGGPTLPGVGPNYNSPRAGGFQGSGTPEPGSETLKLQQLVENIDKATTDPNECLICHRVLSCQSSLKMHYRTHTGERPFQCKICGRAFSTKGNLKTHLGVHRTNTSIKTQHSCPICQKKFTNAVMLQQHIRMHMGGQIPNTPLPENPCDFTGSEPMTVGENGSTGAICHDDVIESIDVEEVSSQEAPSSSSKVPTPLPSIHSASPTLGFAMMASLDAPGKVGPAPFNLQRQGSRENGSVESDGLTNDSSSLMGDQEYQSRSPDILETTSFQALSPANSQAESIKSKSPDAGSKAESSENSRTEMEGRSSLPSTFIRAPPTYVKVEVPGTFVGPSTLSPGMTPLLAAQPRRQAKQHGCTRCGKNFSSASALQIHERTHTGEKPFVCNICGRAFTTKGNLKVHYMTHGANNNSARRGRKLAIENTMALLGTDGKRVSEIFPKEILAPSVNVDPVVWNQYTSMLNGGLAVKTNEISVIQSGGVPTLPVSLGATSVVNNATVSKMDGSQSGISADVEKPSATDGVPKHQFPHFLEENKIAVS
Notes: 8-mer, flanks averaged, mean of replicates
With `CCACCAAC` the E-score was -0.26.
`AAGCCGCA` gave an E-score of -0.1.
With `ACTTAACG` the E-score was -0.0243.
With `AAAAGCGT` the E-score was 0.0739.
The E-score of `AAAACATT` is reported as 0.281.
`CCTCGCGA` gave an E-score of -0.248.
`ACCACCTG` has an E-score of -0.248.
With `CGTGACGA` the E-score was -0.0812.
With `AGCGTGGA` the E-score was -0.11.
The E-score of `TCGCTCCA` is reported as -0.00691.
`GTGGTGCA` has an E-score of -0.0382.
The E-score of `AGTAACGC` is reported as -0.00801.
With `AGTCCAGA` the E-score was -0.0202.
With `CCATGTAA` the E-score was 0.0644.
With `GACTACCA` the E-score was 0.0322.
`ATCGCAGC` gave an E-score of -0.0834.
`CGAGAAAC` has an E-score of -0.0952.
`ACGAAAAC` has an E-score of 0.157.
`AGCCCTCG` has an E-score of -0.234.

Set 2 — method: RNA Bind-n-Seq; molecule type: RNA; matrix: in vitro; tested at: 100 nM; notes: RNA with constant flanks, ends assumed; relative to: input RNA pool; direction: higher = stronger binding
Target: RING finger protein unkempt homolog, zinc fingers 1-6, SBP tag (UNK, Homo sapiens, UniProt Q9C0B0, residues 30-357)
Chain of UniProt Q9C0B0 (30-357, looked up): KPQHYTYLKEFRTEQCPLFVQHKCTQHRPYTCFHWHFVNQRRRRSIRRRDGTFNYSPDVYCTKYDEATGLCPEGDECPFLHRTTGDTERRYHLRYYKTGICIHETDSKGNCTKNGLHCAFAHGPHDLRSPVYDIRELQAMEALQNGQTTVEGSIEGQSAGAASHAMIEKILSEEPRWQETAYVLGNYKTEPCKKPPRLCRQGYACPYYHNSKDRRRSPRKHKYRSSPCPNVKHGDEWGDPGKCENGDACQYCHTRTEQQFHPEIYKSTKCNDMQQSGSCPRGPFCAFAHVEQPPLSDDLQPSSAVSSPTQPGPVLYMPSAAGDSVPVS
For `GGGAGUUCUACAGUCCGACGAUCUGGGUUACUCCUAUUAUUAUCAAGCCGCUGGAAUUGUGAAGGUCGGAGCCGUCCGAUCUUCCGCUUUUAUUCCUUAUUUUUUUGUAUUACUCUCCAUGUGUAUAAAUUAUUGAUCAUGUUCAACAGAGGAUUGAGCAUCA`, the bound/input enrichment was 1.2 ratio.
With `GGGAGUUCUACAGUCCGACGAUCUAAAGGUUUUUUUUUUUUAAUUUAAUUUUUCCUUUUGGGGGUAAAGUUUGCUCUACCAAACCGUGAUUGUAACAAAUUGAUCUGUUUUGGAUGUUGCUACCGUGACAUGCAGUUAUAUAUCAACAGAGGAUUGAGCAUCA` the bound/input enrichment was 0.452 ratio.
`GGGAGUUCUACAGUCCGACGAUCCAGCUGAUUCACUCAUUGGGAGAGCUGCACAUACCGCUGUUCUUGAUUCGGAAAUAUUUUCCGAGAAAUUCUUUCUGGUUGCUGCCCUCAAAUAUUUCCAACCGUAUAAAAGCAUUGUUACAACAGAGGAUUGAGCAUCA` has a bound/input enrichment of 0.643 ratio.

Set 3 — method: DHFR PCA, deep sequencing; matrix: yeast; together with: (+)-ABA 200 µM; relative to: wild-type fitted maximum; direction: higher = stronger binding
Target: ABI1, truncated, D143A, DHFR fusion (Arabidopsis thaliana)
Notes: methotrexate growth selection, single substitutions
Parent: PYL1, truncated, DHFR fusion (Arabidopsis thaliana); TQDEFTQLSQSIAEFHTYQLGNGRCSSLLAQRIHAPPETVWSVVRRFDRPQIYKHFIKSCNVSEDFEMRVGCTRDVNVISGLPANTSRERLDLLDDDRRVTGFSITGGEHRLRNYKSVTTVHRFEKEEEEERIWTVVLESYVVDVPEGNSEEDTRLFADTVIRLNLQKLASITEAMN; partner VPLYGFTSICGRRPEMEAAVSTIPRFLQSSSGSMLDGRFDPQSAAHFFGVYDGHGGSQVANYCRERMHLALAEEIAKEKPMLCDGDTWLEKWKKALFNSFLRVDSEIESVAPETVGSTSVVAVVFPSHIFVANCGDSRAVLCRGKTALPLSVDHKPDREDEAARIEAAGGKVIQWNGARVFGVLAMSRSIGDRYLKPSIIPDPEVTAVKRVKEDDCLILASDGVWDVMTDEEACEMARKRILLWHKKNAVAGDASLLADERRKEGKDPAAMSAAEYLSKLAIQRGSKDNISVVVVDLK
Under “relative binding score”, `Q10K` is recorded as 96.8%.
Under “relative binding score”, `D144G` is recorded as 47.2%.
`D97L` — result for “relative binding score”: 96.9%.
`N77S` — result for “relative binding score”: 104%.
Under “relative binding score”, `H110V` is recorded as 9.01%.
Under “relative binding score”, `I172Q` is recorded as 70.5%.
For `E131S`, “relative binding score” read 104%.
`S117R`: “relative binding score” 7.1%.
For `F5K`, “relative binding score” read 91.2%.
`F157K`: “relative binding score” 1.64%.
`N77W`: “relative binding score” 99.1%.
`N165D` — result for “relative binding score”: 36%.
Under “relative binding score”, `M68W` is recorded as 84.4%.
For `E151P`, “relative binding score” read 96.1%.
`A170P` — result for “relative binding score”: 3.7%.
Under “relative binding score”, `V62T` is recorded as 94%.
Under “relative binding score”, `V118S` is recorded as 60.7%.
Under “relative binding score”, `G23T` is recorded as 89.2%.

Set 4 — method: RNA Bind-n-Seq; molecule type: RNA; matrix: in vitro; tested at: 365 nM; relative to: no-protein control; direction: higher = stronger binding
Target: RNA binding protein fox-1 homolog 2, RRM domain, GST-SBP tag (RBFOX2, Homo sapiens, UniProt O43251-10, residues 100-194)
Notes: natural RNA segment, single round, ends assumed
Target sequence (chain): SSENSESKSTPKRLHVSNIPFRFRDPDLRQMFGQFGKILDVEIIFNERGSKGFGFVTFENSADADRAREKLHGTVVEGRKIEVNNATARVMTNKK
`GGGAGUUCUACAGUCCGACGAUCUUGUGAUCCAAUAACACUUUGUAUUAAAUUGUUUAGCAGCCAUUUGUGUUGUGAAGGGGUAGAAGAUCUCUGAAACUUGUCUUGAGAUUGAACUCAUUCCCUGUUCCACAUGGAAUUCUCGGGUGCCAA`: “RBNS enrichment (R)” 0.35.
For `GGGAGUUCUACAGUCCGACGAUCUUAUUGUAAUCUGACACAGGCAAAAUUAUGGUUCCCACACCCCAACCCCAAAUGAAACCUGGGAUUUUGAAUGUGGCUCUAAGAGUUAACAUUGCUGUCUGUAUGUCGUGUGGAAUUCUCGGGUGCCAA`, “RBNS enrichment (R)” read 0.483.
For `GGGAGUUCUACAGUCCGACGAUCAGGUCGUCUGCAGGGUUUUGCCCUUGGUUUACUGAGGGGGGCUGAGCUGCUGCUGGUCCCCCCUUCUGACGUGCAAUGCAAAAGGGACAUCAUGUAUACGCAGCAUUUAUUGGAAUUCUCGGGUGCCAA`, “RBNS enrichment (R)” read 3.55.
`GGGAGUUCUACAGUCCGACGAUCCCGCAACCACACCUACAAUACCUAUAUCGGGCAGGGUUACAUCAUCCCCGGGAUGGACCAGGGGCUGCAGGGUGCCUGCAUGGGGGAACGCCGGAGAAUUACCAUCCCCCUGGAAUUCUCGGGUGCCAA` — result for “RBNS enrichment (R)”: 1.06.
`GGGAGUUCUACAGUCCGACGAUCAGGUUUUUAGGGGUCAAGGAGGCCUCUAGUGACACAGGAACAGCUGUGGCCCUUUUUUGAAGCUACUCUGACAUGUCCCAGAGCCCAAGGUUCUCAUUUCUCAGGUGGUGUGGAAUUCUCGGGUGCCAA`: “RBNS enrichment (R)” 0.297.
`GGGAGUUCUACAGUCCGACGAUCAAACAGCGAUUUAAAUUGUAUUGAACAGGGCAUAUAAAAUGCAUUCUGUACCCUGAUCUGGCAUAUAGCUUCAAAACUGCAGUGGCGAGUGUCCAUCUCUUAGUUAGCUAUGGAAUUCUCGGGUGCCAA` — result for “RBNS enrichment (R)”: 0.298.
`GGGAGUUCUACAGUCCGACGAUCUACUCUUGCAACAUAACUACCAUCUCUCUCUUAAAACGAGAUCAGGUUAGCAAAUGAUGUAAAAGAAGCUUUAUUGUCUAGUUGUUUUUUUUCCCCCAAGACAAAGGCAAUGGAAUUCUCGGGUGCCAA` — result for “RBNS enrichment (R)”: 0.312.
Under “RBNS enrichment (R)”, `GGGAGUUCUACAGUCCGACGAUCAUUUGCCAUGAGUAUAGUUGAAAUCACCAUAGCAAACUCAGGGUAAGUGUGGGCUUUUGUUUCUUACAUUCCUCUGCAAUGGCCUGGCUGGCCUGGUGACCUCUAGGACCUGGAAUUCUCGGGUGCCAA` is recorded as 0.342.

Set 5 — method: protein binding microarray; molecule type: double-stranded DNA, one strand shown; matrix: in vitro; tested at: not given; relative to: not given; direction: higher = stronger binding
Target: Histone acetyltransferase KAT6A, both winged helices, GST fusion (KAT6A, Homo sapiens, UniProt Q92794, residues 1-181)
Notes: 8-mer, flanks averaged, mean of 2 arrays, mostly near background
Construct (chain): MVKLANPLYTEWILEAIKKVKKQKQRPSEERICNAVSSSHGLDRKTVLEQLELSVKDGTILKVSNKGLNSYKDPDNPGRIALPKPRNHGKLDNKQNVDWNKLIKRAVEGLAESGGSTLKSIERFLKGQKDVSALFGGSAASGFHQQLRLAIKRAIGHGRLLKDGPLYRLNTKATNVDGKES
With `GGTTGTAC` the E-score was 0.0306.
`AATTGTCT` has an E-score of -0.156.
For `AAGGCAGA`, the E-score was -0.21.
With `CAAGTCGG` the E-score was 0.00741.
`TATGGCCA` gave an E-score of -0.11.
`GCATTAGA` gave an E-score of 0.0227.
With `AAGTCGGA` the E-score was 0.0505.
`CCGTAGCA` gave an E-score of 0.225.
The E-score of `CAGGCACC` is reported as -0.0466.
`GTCGCCTA` gave an E-score of 0.113.
The E-score of `TCGCCACA` is reported as -0.0566.
`TCTCATAA` has an E-score of -0.219.
For `ACAACAGT`, the E-score was -0.0793.
For `GACTATCA`, the E-score was -0.117.
With `AACCGCCA` the E-score was 0.11.
With `CCTACCCC` the E-score was -0.148.
With `CAACCATG` the E-score was -0.00705.
`GAGCCACC` gave an E-score of -0.0708.
For `ACTGGATA`, the E-score was -0.173.
`CCCCGTTA` gave an E-score of 0.045.
`GACCTGGC` gave an E-score of -0.157.
The E-score of `ACCAGTCG` is reported as 0.0486.
With `AGATTCTG` the E-score was -0.231.
`CCATCCTC` has an E-score of -0.0873.
For `GCTCGACC`, the E-score was 0.0182.

Some of these lines once more (set 5):
For `ACTGGATA`, the E-score was -0.173.
`GCATTAGA` gave an E-score of 0.0227.
With `CCTACCCC` the E-score was -0.148.
For `ACAACAGT`, the E-score was -0.0793.
The E-score of `TCGCCACA` is reported as -0.0566.
